# Published values gathered from unrelated publications.
# Parts stem from different laboratories: compare values within a part only.

# Series 1 — method: RNA Bind-n-Seq; form: RNA; medium: in vitro; concentration: 365 nM; reference: no-protein control; direction: higher = stronger binding
# Target: RNA binding protein fox-1 homolog 2, RRM domain, GST-SBP tag (RBFOX2, Homo sapiens, UniProt O43251-10, residues 100-194)
# Setting: natural RNA segment, single round, ends assumed
# Construct (chain): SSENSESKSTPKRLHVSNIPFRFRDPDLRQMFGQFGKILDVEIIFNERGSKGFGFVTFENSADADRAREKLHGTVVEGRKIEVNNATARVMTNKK
Strand,RBNS enrichment (R)
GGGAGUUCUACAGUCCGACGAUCCAGAAAAGUGAGUGUACUGGCAGUUAGUGUCACUGCUUUGCACAGUCCCCAUUAAAGGACCCUCCAGAGAGGGACAGUAACUGUGCAUGAGAAGCCGCUCCCAUAAGCCUUGGAAUUCUCGGGUGCCAA,5.13
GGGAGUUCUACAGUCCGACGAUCAGAAGGAAAACGCCAAAUGCUUUGGUUAUUAGAGUUUAAUAGGUAAGCUCUGUUACACUAGGUGUUAGAGUUCCAGAAUGUUCUUUUGUUUGCUAAACCUUGAAGAAACAUGGAAUUCUCGGGUGCCAA,1.01
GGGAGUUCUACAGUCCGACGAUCCCCUCCCCAGGUGGGCAGGGCGGAGGGAGCCUCAGCCUCCUUAGACUGACCCCUCAGGCCCCUAGGCUGGGGGGUUGUAAAUAACAGCAGUCAGGUUGUUUACCAGCCCUUGGAAUUCUCGGGUGCCAA,0.226
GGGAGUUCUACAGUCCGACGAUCUUAUGAGGAAACUAUUUGGAUUAGUGGCCAGAAACGAUGAAAUCUUAUAGAUCUUUUGACAGUUUCUCUGUUUAGGGGAGCCUAGACUGAUAUCAAGUUUCUUCAUAUCAUGGAAUUCUCGGGUGCCAA,0.364
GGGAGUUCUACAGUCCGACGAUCUCUCCACUUCUUCUCAUGUGACCUCACAGUGUUGCUACUGUUCCUAAUAAAGUUUUAAGUUAUUAGACCCUCAAGGCAGCUUCUCUCUUCCUUUGGACGGCUGGACAGGGUGGAAUUCUCGGGUGCCAA,0.725
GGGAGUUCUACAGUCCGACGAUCCGACUCUCCUGCCAGUGUCUUUCAGGAUGUCAACGGGUGGUACGAUUCUGGCAUUUGUUUCUCGCUCACCGUGUGUGGAACACUCAUUCCAUGUAGAGGGUGACGAACUCUGGAAUUCUCGGGUGCCAA,0.392
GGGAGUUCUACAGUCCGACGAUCCUUAUUUAAGUGUUAGACUUCCAUUCUGGCAAAAUCUUGCCUUAUCAGAAGACAUUGGAAAGAGGGAUUCCCUUUGGUGUUUGGUCUUCUACUUAGAAAAACCUAUUGCAUGGAAUUCUCGGGUGCCAA,1.79
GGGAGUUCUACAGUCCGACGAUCGGGCCCAGCAGUGUUCCUCCAUCAGCAUGUUAGACAACUACACAGUAUGUUGUUAGUUUUGAAAGACAUUCACUCAAGGAAAACACCAUCUCAACUUUGCCCGCUCACCAUGGAAUUCUCGGGUGCCAA,1.02
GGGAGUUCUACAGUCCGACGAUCGAUCUUAAGUAUUCUGGAAUAUACCAGAUUGGUAGAACUACCAGACUUGGGUAUUUCUCAGUUAACACACAUGCAAGGAGGAAGAGAGUUUUUUUGAACAAAAUGACUGGUGGAAUUCUCGGGUGCCAA,0.593

# Series 2 — method: protein-binding microarray; form: double-stranded DNA, one strand shown; medium: in vitro; concentration: 250 nM; setting: 60-bp whole probe; added: salmon DNA 0.4 mg/ml; reference: random background probes; direction: higher = stronger binding; shared flanks, not repeated: GCCTAGCAC … GTCTTGATTCGCTTGACGCTGCTG
# Target: Interferon regulatory factor 7, full length, phosphomimetic (IRF7, Homo sapiens, UniProt Q92985, residues 1-503, S101K/S471D/S472D/S475D/S476D/S477D/S483D/S484D/S487D)
# Chain of UniProt Q92985 (whole entry, unmodified, looked up): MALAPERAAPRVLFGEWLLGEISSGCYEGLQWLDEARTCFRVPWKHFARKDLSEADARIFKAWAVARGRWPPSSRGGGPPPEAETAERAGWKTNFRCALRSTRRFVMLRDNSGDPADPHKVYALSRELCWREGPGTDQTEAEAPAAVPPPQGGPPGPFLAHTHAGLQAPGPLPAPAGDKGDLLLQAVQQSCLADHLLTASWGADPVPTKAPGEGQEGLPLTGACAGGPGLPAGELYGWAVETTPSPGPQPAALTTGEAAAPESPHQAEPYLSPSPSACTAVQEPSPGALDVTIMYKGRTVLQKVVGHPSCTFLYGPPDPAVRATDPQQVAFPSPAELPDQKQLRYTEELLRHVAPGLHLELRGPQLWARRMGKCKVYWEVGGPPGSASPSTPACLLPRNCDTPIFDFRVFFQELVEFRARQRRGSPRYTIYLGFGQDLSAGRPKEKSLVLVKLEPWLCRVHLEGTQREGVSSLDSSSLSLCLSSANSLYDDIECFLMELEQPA
Strand,log fluorescence [z-score]
GTTTTTTTTTAATTGAAATCGTGCTAG,2.16
TCATGTCTGGGCTTTTTCACTGTGCTA,-0.837
TCAGTTCTGATCCTTCCCACTGTGCTA,0.75
TTAGGTTTCTGTTTCGGTTAGTGCTAG,11
GACGGTATCCTACTGCTAACGTGCTAG,-0.0766
TTAGGATTGCTTCTCCTTTAGTGCTAG,0.458
GAGGGTATCGACACTGGGGACGTGCTA,-0.578
TTAGGTTTCCACTTTCGGTTAGTGCTA,6.59
TTAGGTATCCTGCTGCTTTAGTGCTAG,-0.388
GACGGCATCGGTCTCGGGACGTGCTAG,-0.259
GACGATATCAGTCTCGCGACGTGCTAG,-0.191
TCATTTCTCTTTCATTGCACTGTGCTA,2.84
TAGTTTTACTTTCTATCTCTGTGCTAG,3.38
CAAGTTTCTCCTTTGTAAATGTGCTAG,3.54
GACGGACTGGGTCTCGGGATGTGCTAG,-0.362
TTAGGGATCGACTATCGGTTAGTGCTA,-0.16
AGTGGGGAGGGAGAGAATCCGTGCTAG,0.143
TTAGGTCTCGGTAACGGTTAGTGCTAG,0.634

# Series 3 — method: competition protein-binding microarray; form: double-stranded DNA, one strand shown; medium: in vitro; concentration: 2 µM; added: Pho4 competitor, 0.05 µM; direction: higher = stronger binding
# Target: Centromere-binding protein 1, full length, His-tagged (CBF1, Saccharomyces cerevisiae, UniProt P17106, residues 1-351)
# Chain of UniProt P17106 (whole entry, looked up): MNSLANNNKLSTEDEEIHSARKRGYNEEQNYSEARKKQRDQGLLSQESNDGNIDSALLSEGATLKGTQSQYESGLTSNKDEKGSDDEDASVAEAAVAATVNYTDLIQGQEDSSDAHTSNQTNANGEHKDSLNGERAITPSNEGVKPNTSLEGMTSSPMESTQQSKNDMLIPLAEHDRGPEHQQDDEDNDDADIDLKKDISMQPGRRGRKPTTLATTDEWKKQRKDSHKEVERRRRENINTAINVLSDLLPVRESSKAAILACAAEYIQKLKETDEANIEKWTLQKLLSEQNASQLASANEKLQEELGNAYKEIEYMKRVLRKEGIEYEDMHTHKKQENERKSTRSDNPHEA
# Setting: whole 60-bp probe, lowest competitor level
Strand,fluorescence intensity [a.u.]
ATAACAAGAGACTGTCATGAAATTAATGTCTTACAAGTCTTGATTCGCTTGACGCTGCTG,101
AATACTTCTGAGTTCTACGTGGTGAAAAAATATTTTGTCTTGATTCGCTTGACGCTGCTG,95.6
GTCTTGTCTCATTTTCACGTGTCCTTCCCCACTTCAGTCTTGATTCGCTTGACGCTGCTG,854
CATACCCAACCTTGTCACTAAACTTAAGATATTTGTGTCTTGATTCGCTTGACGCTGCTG,84.6
CACCGTCCTATTCGTCACGCTCCAGGCAGAGACATGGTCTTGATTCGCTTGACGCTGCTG,161
AGTAAAAGCCACCTTTCCGTGGGTAATCCGCTGAAAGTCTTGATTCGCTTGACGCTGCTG,58.7
TGCGCAACAACTTTTCACGTGGACTTATGTCTAGAAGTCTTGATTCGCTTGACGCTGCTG,768
GCTGACGCTATCCGTCACGTGGTGATGGCAGCTGCTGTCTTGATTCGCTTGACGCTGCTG,4000
AAATTACTAAGTTTTCACGTGGATTACCCCGTATGAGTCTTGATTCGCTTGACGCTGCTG,723
CGTCCTAGTGATTGTTGAGTGGGTGCCATGAGGAAGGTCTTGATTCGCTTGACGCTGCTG,92.7
ATTAAGAGAAGGAAGAGCGTGCTAAGCAGGTTCTTCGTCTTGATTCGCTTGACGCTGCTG,65.2
CGTCCTAGCGATTGAACGGTGGGTGCCATGAGGAAGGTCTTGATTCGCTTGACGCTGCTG,69.6
TTGGCCGTATCTGATCTTGTGCAGGGAGTAACCACTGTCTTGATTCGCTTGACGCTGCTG,72.9
GACAGGAACTGCTGTCATATGAAAACCTAAAAATGTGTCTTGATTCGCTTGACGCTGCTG,92.5
AAATTACTAAGTTGCACAGTGGGTGACGCCGTATGAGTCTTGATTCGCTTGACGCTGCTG,70
GCGTATTTGCCCCAACATGTGGTAGCCAAAACTTCAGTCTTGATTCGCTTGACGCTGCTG,108
GCTTTCCCAGCGATGCTCGTGTGGAGGACCGAACATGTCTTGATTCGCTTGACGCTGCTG,62.7
TAACAGTATATCCGACACGCACGGCAAGACCACTTAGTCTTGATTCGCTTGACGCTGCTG,57.8

# Series 4 — method: RNA Bind-n-Seq; form: RNA; medium: in vitro; concentration: not given; reference: input RNA pool; direction: higher = stronger binding
# Target: RING finger protein unkempt homolog, zinc fingers 1-6, GST-SBP tag (UNK, Homo sapiens, UniProt Q9C0B0, residues 30-357)
# Setting: RNA with constant flanks, human and mouse sites, ends assumed
# Construct (chain): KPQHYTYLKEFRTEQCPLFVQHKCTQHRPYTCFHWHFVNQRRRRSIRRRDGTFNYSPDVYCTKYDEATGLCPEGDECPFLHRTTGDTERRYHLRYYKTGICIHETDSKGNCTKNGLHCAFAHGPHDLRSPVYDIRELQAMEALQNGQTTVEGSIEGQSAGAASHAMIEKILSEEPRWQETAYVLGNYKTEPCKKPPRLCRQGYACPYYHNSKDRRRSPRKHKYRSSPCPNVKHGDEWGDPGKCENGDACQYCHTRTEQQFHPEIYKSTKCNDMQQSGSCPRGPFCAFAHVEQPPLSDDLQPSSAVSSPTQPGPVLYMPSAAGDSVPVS
Strand,bound/input enrichment
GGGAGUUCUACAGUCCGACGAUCCUGGCUUCUUCAGGUUAUCGCACCACUAUGGAAUCCUUUGCAGAAUGGUACUCAUAUAAUGGUUUAAAACAACACAUUCAUAAUUGACUCUGUGCAGGAUGUCACUCAAUCAGUUUGGGUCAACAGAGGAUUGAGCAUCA,0.0766 ratio
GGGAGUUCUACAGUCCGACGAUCAGUCAGCACAGCCGCGGCGGCUGCAGCAGCGAGAGUUCUAGGGUUGCCCUUAAUUGCUGUAGUAACCUGGGUCCGGGGCCUCGGUGGUGCUCCGAUGUCCCUCACCCACCCCUGAAGAUCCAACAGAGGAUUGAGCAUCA,0.1 ratio
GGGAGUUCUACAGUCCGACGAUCAGUUCUGCAAGAAUGGUUACUACAGUACCCCAUGUGUUUUCAAAACUGUUAGAAAUGCUGAGUGUUUCCAGUUCCACUCACUUCACCAGGAUGCGUCGCCGUUUGAUGGCUAUUGCAGAUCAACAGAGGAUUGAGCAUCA,0.291 ratio
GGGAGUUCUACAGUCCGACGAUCACUCACUUUGACCCAAUGGGCAUCCGUACCGAUGCCCCUCUGAUGCAGUUUAAAUCCAUCUUGCUAAAGUACAGCACCCCCACUUACACUGGAGCACAAUCAGAAGGCCAGAUGCCGCCACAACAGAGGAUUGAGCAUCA,0.345 ratio
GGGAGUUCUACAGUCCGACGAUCAAUGACUUCCUUCAUGGCCAAGUUGGGGAUGAGCUGUUCCUGGGUCAGAGGGCUCCGGGUCACAGGGUCAAAGUGGCCCACACGCUGCAACAGAGUCAAGAGUGUUCAAUGGCCUGAGUACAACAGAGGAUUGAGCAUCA,0.172 ratio
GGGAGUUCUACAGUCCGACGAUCACCCUCAUCAACAUCCCAGCCCUAAACGACAGCGACUCUGAAGUGGAGGAUAUCUCGGAAAUAGAGUCCAACCGGUCUUUCUCUCCAGAGGAGAGACGCCAGCAGUAUUCUGAUCAGGAUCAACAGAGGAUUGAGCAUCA,0.179 ratio
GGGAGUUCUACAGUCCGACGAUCAUCAGCGAGGCGGCUGCGCAGUACAACCCGGAGCCCCCGCCCCCACGCACACAUUACUCCAACAUUGAGGCCAACGAGAGUGAGGAGGUCCGGCAGUUCCGGAGACUCUUUGCCCAGCUGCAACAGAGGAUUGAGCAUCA,0.131 ratio
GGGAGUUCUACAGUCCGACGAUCCUUACCUCUUGCAAAAAAAAGAAAAAAGAAAAAAGUUCAUUUAUUCAUUCUGUUUCUAUAUAGCAAAACUGAAUGUCAAAAGUACCUUCUGUCCACACACACAAAAUCUGCAUGUAUUGGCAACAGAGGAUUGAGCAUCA,0.527 ratio

# Repeated from above (series 1):
Strand,RBNS enrichment (R)
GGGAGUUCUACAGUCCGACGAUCUCUCCACUUCUUCUCAUGUGACCUCACAGUGUUGCUACUGUUCCUAAUAAAGUUUUAAGUUAUUAGACCCUCAAGGCAGCUUCUCUCUUCCUUUGGACGGCUGGACAGGGUGGAAUUCUCGGGUGCCAA,0.725
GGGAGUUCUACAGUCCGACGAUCCGACUCUCCUGCCAGUGUCUUUCAGGAUGUCAACGGGUGGUACGAUUCUGGCAUUUGUUUCUCGCUCACCGUGUGUGGAACACUCAUUCCAUGUAGAGGGUGACGAACUCUGGAAUUCUCGGGUGCCAA,0.392
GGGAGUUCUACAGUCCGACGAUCCUUAUUUAAGUGUUAGACUUCCAUUCUGGCAAAAUCUUGCCUUAUCAGAAGACAUUGGAAAGAGGGAUUCCCUUUGGUGUUUGGUCUUCUACUUAGAAAAACCUAUUGCAUGGAAUUCUCGGGUGCCAA,1.79
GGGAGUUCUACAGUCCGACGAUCGGGCCCAGCAGUGUUCCUCCAUCAGCAUGUUAGACAACUACACAGUAUGUUGUUAGUUUUGAAAGACAUUCACUCAAGGAAAACACCAUCUCAACUUUGCCCGCUCACCAUGGAAUUCUCGGGUGCCAA,1.02
